Assay results pooled from the literature.
± gives the spread as reported.

By UniProt entry, the sequences of proteins in these tests, tags left out. Where a name states a change or a piece, a line headed by the entry shows the natural chain unless it says otherwise. Residues count along the entry.
UniProt O00748, 27-559 limits assumed: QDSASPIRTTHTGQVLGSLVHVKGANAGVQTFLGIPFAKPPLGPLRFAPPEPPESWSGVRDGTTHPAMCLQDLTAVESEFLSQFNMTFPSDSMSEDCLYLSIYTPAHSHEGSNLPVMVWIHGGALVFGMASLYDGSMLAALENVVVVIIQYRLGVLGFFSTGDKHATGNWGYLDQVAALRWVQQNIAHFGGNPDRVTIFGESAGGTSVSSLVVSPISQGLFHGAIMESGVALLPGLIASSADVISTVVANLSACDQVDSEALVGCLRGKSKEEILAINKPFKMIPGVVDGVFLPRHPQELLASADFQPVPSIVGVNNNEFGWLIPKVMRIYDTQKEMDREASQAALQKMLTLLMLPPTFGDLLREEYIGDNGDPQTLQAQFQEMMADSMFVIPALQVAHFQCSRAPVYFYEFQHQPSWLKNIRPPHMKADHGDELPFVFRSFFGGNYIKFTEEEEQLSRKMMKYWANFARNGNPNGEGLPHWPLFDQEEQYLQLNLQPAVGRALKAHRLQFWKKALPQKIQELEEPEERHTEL
UniProt Q92630, whole entry: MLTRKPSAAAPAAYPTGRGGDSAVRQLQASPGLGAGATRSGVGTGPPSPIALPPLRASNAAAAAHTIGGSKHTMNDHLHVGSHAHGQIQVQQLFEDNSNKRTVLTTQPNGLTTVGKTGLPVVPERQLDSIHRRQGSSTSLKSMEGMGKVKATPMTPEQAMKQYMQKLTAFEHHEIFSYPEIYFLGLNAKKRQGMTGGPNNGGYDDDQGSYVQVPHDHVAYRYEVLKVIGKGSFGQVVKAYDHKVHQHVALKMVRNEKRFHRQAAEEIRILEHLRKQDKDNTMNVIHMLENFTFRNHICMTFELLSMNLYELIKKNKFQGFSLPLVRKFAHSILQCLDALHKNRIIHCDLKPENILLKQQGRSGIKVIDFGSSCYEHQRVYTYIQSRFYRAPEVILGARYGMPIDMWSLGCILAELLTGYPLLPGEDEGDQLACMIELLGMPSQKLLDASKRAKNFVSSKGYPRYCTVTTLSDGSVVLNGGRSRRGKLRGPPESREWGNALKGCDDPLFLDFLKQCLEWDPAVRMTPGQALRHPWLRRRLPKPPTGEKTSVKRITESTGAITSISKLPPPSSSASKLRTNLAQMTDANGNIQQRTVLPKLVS
UniProt Q9UBN7, whole entry: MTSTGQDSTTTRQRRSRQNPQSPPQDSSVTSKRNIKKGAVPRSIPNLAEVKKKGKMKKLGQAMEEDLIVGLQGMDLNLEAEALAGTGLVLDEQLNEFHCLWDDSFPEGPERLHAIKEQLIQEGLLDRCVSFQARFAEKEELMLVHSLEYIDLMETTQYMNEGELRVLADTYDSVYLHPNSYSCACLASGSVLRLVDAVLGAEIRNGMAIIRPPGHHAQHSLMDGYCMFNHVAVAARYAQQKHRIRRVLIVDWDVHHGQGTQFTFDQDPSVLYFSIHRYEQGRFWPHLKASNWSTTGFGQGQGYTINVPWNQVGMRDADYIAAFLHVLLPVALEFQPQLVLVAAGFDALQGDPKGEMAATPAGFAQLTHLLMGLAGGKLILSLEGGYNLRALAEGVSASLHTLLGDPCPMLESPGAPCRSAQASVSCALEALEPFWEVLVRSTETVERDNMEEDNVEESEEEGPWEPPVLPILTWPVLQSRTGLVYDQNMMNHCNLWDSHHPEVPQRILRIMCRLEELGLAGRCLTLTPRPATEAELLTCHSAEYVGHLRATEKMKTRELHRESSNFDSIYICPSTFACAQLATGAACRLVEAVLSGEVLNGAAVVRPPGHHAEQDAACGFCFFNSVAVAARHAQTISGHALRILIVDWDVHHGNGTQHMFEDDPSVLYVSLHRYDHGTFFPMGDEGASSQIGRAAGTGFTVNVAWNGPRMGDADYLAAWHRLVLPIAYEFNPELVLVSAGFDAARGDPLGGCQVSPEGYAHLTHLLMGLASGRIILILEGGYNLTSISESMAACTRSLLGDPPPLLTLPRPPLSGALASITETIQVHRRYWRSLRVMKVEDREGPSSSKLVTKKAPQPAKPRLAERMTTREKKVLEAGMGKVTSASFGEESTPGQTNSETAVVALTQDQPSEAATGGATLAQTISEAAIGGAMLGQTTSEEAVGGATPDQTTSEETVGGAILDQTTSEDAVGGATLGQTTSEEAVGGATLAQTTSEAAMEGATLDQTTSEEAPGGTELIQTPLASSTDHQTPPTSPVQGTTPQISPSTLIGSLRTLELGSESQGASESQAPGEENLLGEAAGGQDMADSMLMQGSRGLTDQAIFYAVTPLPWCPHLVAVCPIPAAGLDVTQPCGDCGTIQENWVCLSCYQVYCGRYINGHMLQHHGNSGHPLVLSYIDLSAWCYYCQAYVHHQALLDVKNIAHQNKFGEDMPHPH
UniProt P03372, whole entry: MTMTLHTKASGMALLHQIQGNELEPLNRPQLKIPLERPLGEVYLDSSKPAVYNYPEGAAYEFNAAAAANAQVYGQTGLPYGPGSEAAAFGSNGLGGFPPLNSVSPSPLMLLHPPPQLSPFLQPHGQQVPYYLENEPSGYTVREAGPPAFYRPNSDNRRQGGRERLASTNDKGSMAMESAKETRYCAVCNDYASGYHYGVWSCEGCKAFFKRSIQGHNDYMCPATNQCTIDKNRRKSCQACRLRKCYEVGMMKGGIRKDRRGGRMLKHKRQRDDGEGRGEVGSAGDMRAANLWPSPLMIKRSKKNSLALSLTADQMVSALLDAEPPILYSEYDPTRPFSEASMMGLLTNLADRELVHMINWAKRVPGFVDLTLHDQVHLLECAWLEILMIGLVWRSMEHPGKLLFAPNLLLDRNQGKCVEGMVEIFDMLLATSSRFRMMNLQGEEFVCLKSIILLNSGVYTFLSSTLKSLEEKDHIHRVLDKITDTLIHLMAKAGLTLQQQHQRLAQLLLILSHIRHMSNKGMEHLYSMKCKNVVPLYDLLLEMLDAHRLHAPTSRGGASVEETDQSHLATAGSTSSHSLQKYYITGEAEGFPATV
UniProt Q03137, 20-547 limits assumed: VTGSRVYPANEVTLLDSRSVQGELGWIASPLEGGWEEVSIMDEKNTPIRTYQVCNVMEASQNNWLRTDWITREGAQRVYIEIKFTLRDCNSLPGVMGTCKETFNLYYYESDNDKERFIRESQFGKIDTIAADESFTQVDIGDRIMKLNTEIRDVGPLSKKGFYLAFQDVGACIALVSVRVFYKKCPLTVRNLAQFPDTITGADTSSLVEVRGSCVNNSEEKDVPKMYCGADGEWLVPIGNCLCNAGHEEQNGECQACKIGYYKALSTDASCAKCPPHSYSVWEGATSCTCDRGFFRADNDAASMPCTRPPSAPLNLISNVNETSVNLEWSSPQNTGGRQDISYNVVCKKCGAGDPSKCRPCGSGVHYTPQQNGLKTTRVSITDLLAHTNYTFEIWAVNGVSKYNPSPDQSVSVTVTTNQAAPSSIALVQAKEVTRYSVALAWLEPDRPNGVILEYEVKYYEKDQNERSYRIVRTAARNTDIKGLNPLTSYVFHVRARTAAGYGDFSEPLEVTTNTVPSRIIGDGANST
UniProt P07949, whole entry, looked up, stated change not applied: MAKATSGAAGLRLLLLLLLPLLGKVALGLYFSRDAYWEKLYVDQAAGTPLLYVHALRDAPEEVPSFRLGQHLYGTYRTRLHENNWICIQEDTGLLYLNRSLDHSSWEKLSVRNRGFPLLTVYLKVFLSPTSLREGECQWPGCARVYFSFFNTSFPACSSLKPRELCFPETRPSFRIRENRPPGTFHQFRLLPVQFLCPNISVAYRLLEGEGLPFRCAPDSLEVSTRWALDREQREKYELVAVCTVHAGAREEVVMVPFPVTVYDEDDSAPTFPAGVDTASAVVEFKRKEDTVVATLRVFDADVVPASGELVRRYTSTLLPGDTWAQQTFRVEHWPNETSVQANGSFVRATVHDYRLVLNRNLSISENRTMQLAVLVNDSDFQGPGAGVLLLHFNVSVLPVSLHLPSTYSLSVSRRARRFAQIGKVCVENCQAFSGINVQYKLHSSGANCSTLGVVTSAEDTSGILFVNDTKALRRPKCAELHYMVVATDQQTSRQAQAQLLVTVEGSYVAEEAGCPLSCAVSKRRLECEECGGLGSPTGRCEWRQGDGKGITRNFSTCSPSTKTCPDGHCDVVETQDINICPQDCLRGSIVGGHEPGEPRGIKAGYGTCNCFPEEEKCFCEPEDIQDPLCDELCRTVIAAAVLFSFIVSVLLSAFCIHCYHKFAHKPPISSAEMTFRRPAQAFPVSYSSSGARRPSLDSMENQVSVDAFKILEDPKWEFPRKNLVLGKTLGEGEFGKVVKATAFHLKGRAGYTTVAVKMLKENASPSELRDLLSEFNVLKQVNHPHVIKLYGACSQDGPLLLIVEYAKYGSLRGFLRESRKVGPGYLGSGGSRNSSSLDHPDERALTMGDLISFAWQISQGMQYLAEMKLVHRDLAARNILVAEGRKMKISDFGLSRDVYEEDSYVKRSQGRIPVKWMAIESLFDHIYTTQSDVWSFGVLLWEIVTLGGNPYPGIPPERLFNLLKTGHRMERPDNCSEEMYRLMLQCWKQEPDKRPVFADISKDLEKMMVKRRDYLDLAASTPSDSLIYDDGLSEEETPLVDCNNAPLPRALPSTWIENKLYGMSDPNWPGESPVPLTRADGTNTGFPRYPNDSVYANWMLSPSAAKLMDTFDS
UniProt P33176, whole entry, looked up: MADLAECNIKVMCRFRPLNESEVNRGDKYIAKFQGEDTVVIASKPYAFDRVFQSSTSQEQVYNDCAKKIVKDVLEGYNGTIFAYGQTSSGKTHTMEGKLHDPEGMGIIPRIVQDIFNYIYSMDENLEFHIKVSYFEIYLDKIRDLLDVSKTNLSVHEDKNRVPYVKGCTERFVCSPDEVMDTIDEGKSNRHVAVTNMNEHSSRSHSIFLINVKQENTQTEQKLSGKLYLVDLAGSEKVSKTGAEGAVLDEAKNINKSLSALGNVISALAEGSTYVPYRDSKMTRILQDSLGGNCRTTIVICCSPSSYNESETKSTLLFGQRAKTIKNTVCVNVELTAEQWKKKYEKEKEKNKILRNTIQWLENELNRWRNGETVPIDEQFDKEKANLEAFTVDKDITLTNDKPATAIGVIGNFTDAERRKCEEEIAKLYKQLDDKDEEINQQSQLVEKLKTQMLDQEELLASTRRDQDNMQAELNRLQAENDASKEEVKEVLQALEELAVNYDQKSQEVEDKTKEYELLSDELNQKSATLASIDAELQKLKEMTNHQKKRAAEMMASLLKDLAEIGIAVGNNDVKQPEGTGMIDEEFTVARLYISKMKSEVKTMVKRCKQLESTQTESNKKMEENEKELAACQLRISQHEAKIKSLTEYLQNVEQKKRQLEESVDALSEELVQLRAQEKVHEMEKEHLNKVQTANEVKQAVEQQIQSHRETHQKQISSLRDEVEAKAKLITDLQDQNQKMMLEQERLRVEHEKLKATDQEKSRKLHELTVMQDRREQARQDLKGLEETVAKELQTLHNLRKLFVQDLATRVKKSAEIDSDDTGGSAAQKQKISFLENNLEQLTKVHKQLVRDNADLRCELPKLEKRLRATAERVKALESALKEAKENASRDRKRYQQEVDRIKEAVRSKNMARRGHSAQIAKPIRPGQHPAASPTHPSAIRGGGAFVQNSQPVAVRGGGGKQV
UniProt Q9NV35, whole entry: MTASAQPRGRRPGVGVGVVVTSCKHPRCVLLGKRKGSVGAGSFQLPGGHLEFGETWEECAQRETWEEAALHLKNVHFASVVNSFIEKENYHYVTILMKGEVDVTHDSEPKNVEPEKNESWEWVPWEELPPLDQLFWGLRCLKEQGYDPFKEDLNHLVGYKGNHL
UniProt O15151, 23-111 limits assumed: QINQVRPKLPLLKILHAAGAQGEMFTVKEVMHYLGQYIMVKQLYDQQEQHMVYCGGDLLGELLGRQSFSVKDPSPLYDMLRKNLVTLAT
UniProt O60928, whole entry M125R: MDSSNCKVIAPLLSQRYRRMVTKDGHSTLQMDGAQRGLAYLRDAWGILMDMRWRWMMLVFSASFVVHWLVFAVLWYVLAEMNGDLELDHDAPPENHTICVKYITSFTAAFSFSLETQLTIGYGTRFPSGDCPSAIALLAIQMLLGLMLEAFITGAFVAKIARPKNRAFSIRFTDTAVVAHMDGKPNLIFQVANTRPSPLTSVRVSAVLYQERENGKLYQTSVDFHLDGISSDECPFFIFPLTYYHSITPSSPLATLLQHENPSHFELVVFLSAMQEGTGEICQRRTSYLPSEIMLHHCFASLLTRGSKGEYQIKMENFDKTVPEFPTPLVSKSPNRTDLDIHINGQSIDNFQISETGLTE
UniProt P28300, whole entry, looked up: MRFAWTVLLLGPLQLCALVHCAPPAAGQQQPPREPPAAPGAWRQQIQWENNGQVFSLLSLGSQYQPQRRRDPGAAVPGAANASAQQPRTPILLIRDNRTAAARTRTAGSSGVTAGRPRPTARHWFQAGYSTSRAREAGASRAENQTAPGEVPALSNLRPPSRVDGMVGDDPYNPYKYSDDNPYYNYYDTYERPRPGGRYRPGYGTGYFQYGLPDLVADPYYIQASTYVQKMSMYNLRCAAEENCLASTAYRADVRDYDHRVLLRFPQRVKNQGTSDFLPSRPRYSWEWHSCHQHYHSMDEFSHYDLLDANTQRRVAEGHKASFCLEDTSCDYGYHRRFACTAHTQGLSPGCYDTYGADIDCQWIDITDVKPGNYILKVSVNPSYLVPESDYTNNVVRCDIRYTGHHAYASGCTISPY

| SMILES | target | assay | test system | conditions | IC50 |
| --- | --- | --- | --- | --- | --- |
| CCN(CC)C(=O)Oc1ccccc1C=C1Cc2cc(OC)c(OC)cc2C1=O | Cocaine esterase (CES2, Homo sapiens, UniProt O00748) | inhibitor | – | 3 min preincubation, added: fluorescein diacetate | 0.0118 ± 0.00207 µM |
| NCCCSc1c2ccccc2nc2ccccc12 | DYRK2 (Homo sapiens, UniProt Q92630) | inhibitor | – | added: Woodtide peptide | 7.7 µM |
| O=C(Nc1ccc(-c2nc3ccccc3[nH]2)cc1)C1CCC1 | Moesin, with CD44 (Homo sapiens, UniProt P26038) | MSN-CD44 interaction, inhibitor, TR-FRET | – | added: CD44 | > 100 µM |
| O=C(NO)c1cc(F)cc(F)c1F | HDAC6 (Homo sapiens, UniProt Q9UBN7) | enzyme activity, inhibitor, electrophoretic mobility shift | – | added: FAM-RHKK(Ac)-NH2 1 µM | 0.542 µM |
| COC(=O)CC(C(=O)/C=C/c1ccc(O)c(OC(F)(F)F)c1)C(=O)/C=C/c1ccc(O)c(OC(F)(F)F)c1 | Amyloid-beta precursor protein, Aβ aggregates (APP, Homo sapiens, UniProt P05067) | binding, thioflavin T competition | – | – | 0.57 µM |
| N#Cc1ccccc1N1CCN(C(=O)CCCCCn2c(=S)[nH]c3ccccc3c2=O)CC1 | Estrogen receptor (ESR1, Homo sapiens, UniProt P03372) | reporter gene, antagonist | HEC-1 cells transfected with ERα | added: estradiol 1 nM | 3.5 µM |
| NCCC(=O)N[C@@H](Cc1c[nH]c2ccc(O)cc12)C(=O)N[C@@H](Cc1ccc(Cl)cc1)C(=O)N[C@@H](Cc1ccncc1)C(=O)N[C@H](Cc1c[nH]c2ccccc12)C(N)=O | Ephrin type-A receptor 4, extracellular domain (Epha4, Mus musculus, UniProt Q03137) | ephrin-A5 binding, inhibitor, ELISA | – | – | 3.4 µM |
| CC(C)[C@H](N)c1nc2cc(-c3c[nH]cn3)sc2c(=O)[nH]1 | CDC7 (Homo sapiens, UniProt O00311) | enzyme activity, inhibitor | – | – | > 10 µM |
| CS(=O)(=O)Nc1cccc(/C=C/c2c[nH]c3ccc(C#N)cc23)c1 | Amyloid-beta precursor protein, amyloid-beta peptide (APP, Homo sapiens, UniProt P05067) | Aβ42 oligomerisation, ELISA | – | – | 9.8 µM |
| CN1CC[C@H](c2c(O)cc(O)c3c(=O)cc(-c4ccccc4F)oc23)[C@H](O)C1 | PRKACA (Homo sapiens, UniProt P17612) | – | – | ATP at Km | > 10 µM |
| CN1CCN(Cc2ccc(NC(=O)c3cncc(C#Cc4c(N)ncc5ccc(F)cc45)c3)cc2C(F)(F)F)CC1 | Kinesin-1 heavy chain/ Tyrosine-protein kinase receptor RET (RET/KIF5B, Homo sapiens, UniProt P07949+P33176, G810S) | cell viability, inhibitor, CellTiter-Glo | Ba/F3 KIF5B-RET G810S | – | 0.0151 ± 0.0005 µM |
| Nc1cc(-c2ccc(C3(c4ccc(Cl)cc4)CCNCC3)cc2)ccn1 | LATS2 (Homo sapiens, UniProt Q9NRM7) | kinase activity, inhibitor, radiometric HotSpot | – | added: ATP 10 µM | 0.111 µM |
| O=C(CCc1ccccc1)N1CCN(S(=O)(=O)c2ccc3[nH]c(=O)oc3c2)CC1 | NUDT15 (Homo sapiens, UniProt Q9NV35) | enzyme activity, inhibitor, malachite green | – | added: dGTP | 6.1 µM |
| CC(C)Oc1cc(C#N)ccc1C1=N[C@@H](c2cccc(Cl)c2)[C@@H](c2ccc(Cl)cc2)N1C(=O)N1CCNC(=O)C1 | Protein Mdm4, N-terminal domain (MDM4, Homo sapiens, UniProt O15151) | MdmX-p53 binding, fluorescence polarization | – | MdmX residues 23-111 | 8.6 µM |
| CC1CCN(Cc2cc(Cl)c3cccnc3c2O)CC1 | KCNJ13 (Homo sapiens, UniProt O60928, M125R) | potassium current, inhibitor, whole-cell patch clamp | – | holding potential -120 mV | 1.4 µM |
| CNCCN(C)c1ccc(Nc2cc(NC3CC3)n3ncc(C#N)c3n2)cc1NC(C)=O | CSNK2A2 (Homo sapiens, UniProt P19784) | target engagement, NanoBRET | HEK293 | – | 0.0026 µM |
| CCOC(=O)[C@H](CO)NCc1cc2c(cc1OCc1cccc(C#N)c1)C(=O)N(c1cccc(-c3ccccc3)c1C)C2=O | Programmed cell death 1 ligand 1, with PD-1 (CD274, Homo sapiens, UniProt Q9NZQ7) | PD-1/PD-L1 binding, inhibitor, TR-FRET | – | – | 0.867 µM |
| COc1ccc(Nc2nc(-c3sc(N)nc3C)cs2)cc1 | Protein-lysine 6-oxidase (Homo sapiens, UniProt P28300) | LOX activity, inhibitor | MDA-MB-231 | – | 7.5 µM |
| C1=C(CCNCc2ccccc2)CCCC1 | Phenylalanine--tRNA ligase alpha subunit (Homo sapiens, UniProt Q9Y285) | phenylalanine activation, inhibitor | – | human enzyme | > 300 µg/mL |

For quick reference, copied from above:
| SMILES | target | assay | test system | conditions | IC50 |
| --- | --- | --- | --- | --- | --- |
| O=C(Nc1ccc(-c2nc3ccccc3[nH]2)cc1)C1CCC1 | Moesin, with CD44 (Homo sapiens, UniProt P26038) | MSN-CD44 interaction, inhibitor, TR-FRET | – | added: CD44 | > 100 µM |
| CS(=O)(=O)Nc1cccc(/C=C/c2c[nH]c3ccc(C#N)cc23)c1 | Amyloid-beta precursor protein, amyloid-beta peptide (APP, Homo sapiens, UniProt P05067) | Aβ42 oligomerisation, ELISA | – | – | 9.8 µM |
